Assay results from different studies.
Each numbered part is a random draw from the data of one study; scales do not carry over between parts.
Sequence of UniProt Q8CE90 (whole entry, looked up): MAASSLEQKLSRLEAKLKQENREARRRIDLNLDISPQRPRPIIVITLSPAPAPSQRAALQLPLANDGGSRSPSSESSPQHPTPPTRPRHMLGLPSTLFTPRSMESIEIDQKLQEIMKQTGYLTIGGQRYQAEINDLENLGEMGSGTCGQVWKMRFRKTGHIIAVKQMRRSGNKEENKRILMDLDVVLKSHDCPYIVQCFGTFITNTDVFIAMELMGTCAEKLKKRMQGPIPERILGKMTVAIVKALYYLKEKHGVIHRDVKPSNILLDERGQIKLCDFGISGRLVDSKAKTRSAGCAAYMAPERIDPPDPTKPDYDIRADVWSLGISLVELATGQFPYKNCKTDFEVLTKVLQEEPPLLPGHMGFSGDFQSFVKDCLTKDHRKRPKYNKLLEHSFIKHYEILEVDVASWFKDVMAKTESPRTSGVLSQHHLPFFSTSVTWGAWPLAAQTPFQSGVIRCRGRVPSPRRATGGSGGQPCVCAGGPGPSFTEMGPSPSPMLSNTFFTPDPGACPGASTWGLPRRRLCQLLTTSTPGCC

Set 1
Organism: Sarcocystis neurona
Read-out: parasite growth
Tested at: 10 µM
Time: 96 h
Notes: first screen
| SMILES | inhibition [%] |
| --- | --- |
| Fc1ccc([C@@H]2CCNC[C@H]2COc2ccc3c(c2)OCO3)cc1 | 12.6 |
| COc1ccc(Cl)cc1C(=O)NCCc1ccc(S(=O)(=O)NC(=O)NC2CCCCC2)cc1 | -19.1 |
| CC(=O)OCC(=O)[C@@]1(O)CC[C@H]2[C@@H]3C[C@H](C)C4=CC(=O)C=C[C@]4(C)[C@H]3[C@@H](O)C[C@@]21C | 3.3 |
| Nc1ccc(O)c(C(=O)O)c1 | -8.4 |

Set 2
Structure (SMILES): COc1cc(C(=O)N2CCC(N3CCN(C)CC3)CC2)ccc1Nc1ncc2c(n1)N(C)c1ccccc1C(=O)N2C
| target | assay | test system | setting | inhibition [%] |
| --- | --- | --- | --- | --- |
| eEF2K human | KiNativ profiling | human PBMC lysate | concentration not given, ATP probe, kinase domain site | 7.5 |
| Dual specificity mitogen-activated protein kinase kinase 7 (Map2k7, Mus musculus, UniProt Q8CE90) | probe labelling, KiNativ, item: DVkPSNILLDER peptide, Lys2 site | brain tissue lysate (mouse) | 0.1 µM, with: ADP acyl-phosphate probe | 20.4 |
| CaMKK2 (mouse) | probe labelling, KiNativ, item: Lys1 site peptide | brain tissue lysate (mouse) | 1 µM, with: ADP acyl-phosphate probe | 23.2 |
| FYN (mouse) | probe labelling, KiNativ ADP probe | mouse brain lysate | 0.1 µM, LYS1 labelled site | -24.7 |
| mouse NUAK1 | probe labelling, KiNativ ATP probe | mouse brain lysate | 1 µM | 7.8 |
| ATR (mouse) | probe labelling, KiNativ, item: FYIMMCkPK peptide, ATP site | brain tissue lysate (mouse) | 1 µM, with: ADP acyl-phosphate probe | -5.7 |
| PIP4K2C mouse | KiNativ profiling | mouse brain lysate | 0.1 µM, ATP site, with: ATP acyl phosphate probe | 5.9 |

Set 3
Cell line: mouse MPNST tumor cells
Technique: high-content nuclear imaging
Item: cell number
Tested at: 10 µM
Time: 12 h
Notes: mean of 2 replicates
Relative to: plate mean
Direction: higher = more cells
| Compound | nuclei count [z-score] |
| --- | --- |
| CCOc1cc(/C=C2/C(=O)N(c3ccccc3)N=C2C)cc(Cl)c1OCC(=O)OC | 0.94 |
| Nc1nccc(-c2c(-c3ccc(F)cc3)ncn2C2CCCCC2)n1 | -0.297 |
| C[C@]12CC[C@H]3[C@@H](CCC4=CC(=O)CC[C@@]43C)[C@@H]1CC[C@@H]2C(=O)CO | 1.13 |
| CC1CNCCN1S(=O)(=O)c1cccc2cnccc12 (stereo not shown) | 2.18 |

Set 4
Species: mouse
Medium: microsomes or S9
Tested at: 2 µM
Time: 0.5 h
| Compound | remaining compound |
| --- | --- |
| O=C(C1CC(=O)N(c2nc[nH]n2)C1)N1CCC(c2c[nH]c3ccccc23)(c2c[nH]c3ccccc23)CC1 (stereo not shown) | 8.8% |
| CCCc1c(C(=O)O)cnn1-c1nc(CC)cc(=O)[nH]1 | > 99.9% |
| Cn1cnnc1C1CCCCN1S(=O)(=O)c1cccc2cccnc12 (stereo not shown) | 51.6% |
| CN1CC[C@H]2CN(C(=O)c3c4c(nn3C)CCCC4)C[C@H]21 | 79.3% |
| Fc1cc(F)cc(-c2cc3cc(-c4ccccc4)[nH]c3cn2)c1 | 64.9% |
| CC(C)(C)c1cc(NC(=O)Cn2nnn(-c3ccccc3)c2=O)on1 | 4.41% |

Set 5
Cell line: normal adjacent epithelium patient-derived organoids
Technique: CellTiter-Glo
Tested at: 1 µM
Notes: mean of five organoid lines
Relative to: DMSO
| SMILES | viability [%] |
| --- | --- |
| N#CC1(c2ccccn2)CCN(Cc2cc(C(=O)N3CCCC3)c(=O)n3ccccc23)CC1 | 117 |
| CC(C)(O)c1cncc(-c2nc3ccc(F)cc3n2C2CC2)c1 | 105 |
| CC(=O)N1CCC(c2ccc(C(=O)NC3=NCCN3)cc2C(F)(F)F)CC1 | 103 |
| CNc1nc(-c2ccc3c(N)n[nH]c3c2)cc(N2C[C@@H](C(=O)NC3CCCCC3)CC[C@H]2C)n1 | 94.3 |
| CN(C)[C@@H]1CCN(c2cc(-c3ccccc3)nc3ccnn23)C1 | 113 |
| N#CC1(c2ccccn2)CCN(Cc2cc(C(=O)O)c(=O)n3ccccc23)CC1 | 107 |
| CNC(=O)c1cc(C(=O)N[C@H]2[C@@H]3COC[C@@H]32)cc2c1O[C@H](CF)[C@H]2c1ccccc1 | 100 |
| Nc1nc(NCc2ccccc2)nc(-c2ccccc2CO)n1 | 118 |
| CO[C@H]1CC[C@H](CNc2ccc(S(=O)(=O)NC(=O)c3ccc(N4CCN(CC5=C(c6ccc(Cl)cc6)CC(C)(C)CC5)CC4)cc3Oc3cnc4[nH]ccc4c3)cc2[N+](=O)[O-])CC1 | 94.2 |
| O=C(NNS(=O)(=O)c1ccccc1F)c1cc(F)cc(-c2ccccn2)c1 | 93.9 |
| CNC(=O)c1ccccc1Nc1cc(Nc2ccc(N3CCOCC3)cc2OC)ncc1C(F)(F)F | 27.4 |
| COc1cc(-c2cn(C3CCc4c(F)cccc4N(CC(F)(F)F)C3=O)nn2)ccc1-n1cnc(C)c1 (stereo not shown) | 112 |
| Cc1c(NC(=O)c2cc(C(N)=O)nc3cc(F)ccc23)c(C(F)(F)F)nn1Cc1ccc(C#N)cc1 | 23.1 |
| Cn1cncc1[C@](O)(COc1ccc(C#N)cc1-c1ccc(OC(F)(F)F)cc1)c1ccc(C#N)cc1 | 42.4 |
| CCC(=O)N[C@@H]1CC[C@H](C(=O)N(C)c2ccc(-c3nc4ccccc4o3)cc2)C1 | 96.9 |
| Cc1cc(-n2nc(Cc3cc(F)cc(C(F)(F)F)c3)nc2C)ccc1C(N)=O | 98.2 |
| COc1cc(-c2cn(C3CCc4ccccc4N(CC(F)(F)F)C3=O)nn2)ccc1-n1ccc(C)n1 (stereo not shown) | 93.4 |
| C[C@@H](NC(=O)Nc1cc2[nH]ncc2c(CO)n1)c1ccccc1 | 84.6 |
| C[C@@H](c1cccc(C#N)c1)n1cc(Cl)cc(C(N)=O)c1=N | 110 |

A few entries again (set 5):
| SMILES | viability [%] |
| --- | --- |
| C[C@@H](NC(=O)Nc1cc2[nH]ncc2c(CO)n1)c1ccccc1 | 84.6 |
| CCC(=O)N[C@@H]1CC[C@H](C(=O)N(C)c2ccc(-c3nc4ccccc4o3)cc2)C1 | 96.9 |
| Cc1c(NC(=O)c2cc(C(N)=O)nc3cc(F)ccc23)c(C(F)(F)F)nn1Cc1ccc(C#N)cc1 | 23.1 |
| Nc1nc(NCc2ccccc2)nc(-c2ccccc2CO)n1 | 118 |
| CC(C)(O)c1cncc(-c2nc3ccc(F)cc3n2C2CC2)c1 | 105 |
